Results gathered from unrelated publications.
Compare with care: the assays were run in different laboratories. ± marks the error that the study gave.

Compound	target or system	assay	system	conditions	measurement	value
COc1ccc2c(c1)c(CC(=O)[O-])c(C)n2C(=O)c1ccc(Cl)cc1.COc1ccc2c(c1)c(CC(=O)[O-])c(C)n2C(=O)c1ccc(Cl)cc1.[Co+2].c1c[nH]cn1.c1c[nH]cn1	calf thymus DNA	cyclic voltammetry	DMSO/buffer	Co(II)/Co(I) couple, with DNA	anodic peak potential	-505 mV
N=C(N)NCCC[C@@H]1NC(=O)[C@H](CCCCNC(=O)CNC(=O)CNC(=O)CNC(=O)CC[C@H](NC(=O)CNC(=O)CNC(=O)CNC(=O)CC[C@H](NC(=O)CN2CCN(CC(=O)O)CCN(CC(=O)O)CCN(CC(=O)O)CC2)C(=O)NCC(=O)NCC(=O)NCC(=O)N[C@@H](CCC(=O)NCC(=O)NCC(=O)NCC(=O)NCCCC[C@@H]2NC(=O)[C@@H](Cc3ccccc3)NC(=O)[C@H](CC(=O)O)NC(=O)CNC(=O)[C@H](CCCNC(=N)N)NC2=O)C(=O)NCC(=O)NCC(=O)NCC(=O)NCCCC[C@@H]2NC(=O)[C@@H](Cc3ccccc3)NC(=O)[C@H](CC(=O)O)NC(=O)CNC(=O)[C@H](CCCNC(=N)N)NC2=O)C(=O)NCC(=O)NCC(=O)NCC(=O)NCCCC[C@@H]2NC(=O)[C@@H](Cc3ccccc3)NC(=O)[C@H](CC(=O)O)NC(=O)CNC(=O)[C@H](CCCNC(=N)N)NC2=O)NC(=O)[C@@H](Cc2ccccc2)NC(=O)[C@H](CC(=O)O)NC(=O)CNC1=O [indium-111 labelled]			female athymic nu/nu mice, liver	intravenous, 24 h	tissue uptake	2.46 ± 0.36 %ID/g
O=C(O)CCC(NP(=O)(O)OCCC[C@@H](NC(=O)CC[C@H](NC(=O)CCCCCNC(=O)c1ccc([18F])cc1)C(=O)O)C(=O)O)C(=O)O (some centres unmarked)	CWR22Rv1 tumour model		host not given, blood	1 h, tumour-bearing	tracer uptake	0.104 %ID/g
Cn1c(=O)oc2ccc(-c3ccc(CC(C#N)NC(=O)C4CNCCCO4)c(F)c3)cc21 (centres unmarked)			human	oral, 20 mg once daily, TEAE, multiple ascending dose	skin exfoliation incidence	11.1%
NCC(=O)N1CCC[C@H]1C(=O)N1C[C@H](O)C[C@H]1C(=O)O	iron(III) ion	complex formation, Van't Hoff plot	aqueous 0.15 M NaCl	MAH−3 complex species	ΔH	514 kJ/mol
COc1cc2c(cc1O)[C@]1(O)C(=O)c3c(O)cc4c(c3O[C@@H]1CO2)C=CC(C)(C)O4	K562	cell growth or viability, MTT		6.25 µg/mL	viability	67.8%
COc1ccc(-n2c(=O)c(C(=O)C3C(=O)CCCC3=O)nc3c(Cl)cccc32)cc1	Oryza sativa		seedlings	3 days	parent remaining	~70%
CCc1cccc2c(C(=O)COC(=O)C34CC5CC(CC(Br)(C5)C3)C4)c[nH]c12	Oryza sativa		Nipponbare	concentration not given, 40 days, 40-day-old plants	shoot dry weight	no effect
CC(C)=CCc1c2c(c(O)c3c(=O)c(-c4ccc(O)cc4)coc13)CC(C(C)(C)O)O2 (centres unmarked)	K562	cell growth or viability, MTT		6.25 µg/mL	viability	53.8%
[64Cu+2].c1cnc(CNCc2ccc(CN3CCCN4CCNCCCN(CC4)CC3)cc2)nc1	CXCR4		NOD/SCID mouse, U87 and U87-stb-CXCR4 xenografts, pancreas	iv, 90 min, ex vivo, with: AMD3465 25 mg/kg sc before tracer	tissue uptake	0.84 ± 0.14 %ID/g
CC(=O)N[C@H](C(=O)N[C@H](C(=O)N[C@@H](CCCNC(=N)N)C(=O)N1Cc2ccccc2C[C@H]1C(=O)N[C@@H](Cc1ccccc1)C(N)=O)C1CCCCC1)C(C)C	human PBMC	Bio-Plex multiplex, refers to: IL-12(p70)		500 µg/mL, 24 h	cytokine level	2.5 ± 2 pg/mL
[64Cu+2].c1ccc(CNCc2ccc(CN3CCCN4CCNCCCN(CC4)CC3)cc2)nc1	CXCR4		NOD/SCID mouse, U87 xenografts, small intestine	90 min, with: AMD3465 25 mg/kg sc	tissue uptake	15.1 ± 5.87 %ID/g
O=C([O-])CN1CCN(CC(=O)[O-])CCN(CC(=O)NCCc2ccc3c(c2)C2C=CCC2C(c2cc4c(cc2Br)OCO4)N3)CCN(CC(=O)[O-])CC1.[111In+3] (centres unmarked)	Hec50 tumour model		host not given, blood	4 h, tumour-bearing	tracer uptake	0.23 %ID/g
C=CC(=O)Nc1cc(Nc2nccc(-c3cn(C)c4ccccc34)n2)c(OCC(F)(F)F)nc1N(C)CCN(C)C	Cytochrome P450 2C9 (CYP2C9, Homo sapiens, UniProt P11712)	enzyme activity, inhibitor, refers to: tolbutamide 4′-hydroxylation	pooled human liver microsomes	3.33 µM	remaining activity	104%

Repeated from above:
Compound	target or system	assay	system	conditions	measurement	value
CC(=O)N[C@H](C(=O)N[C@H](C(=O)N[C@@H](CCCNC(=N)N)C(=O)N1Cc2ccccc2C[C@H]1C(=O)N[C@@H](Cc1ccccc1)C(N)=O)C1CCCCC1)C(C)C	human PBMC	Bio-Plex multiplex, refers to: IL-12(p70)		500 µg/mL, 24 h	cytokine level	2.5 ± 2 pg/mL
